Assay results collected from several papers.
Lines come from different studies, so protocols differ. Values joined by “and” are separate records of one study, mostly repeats; a detail may differ. ± marks the error that the study gave.

Substance | cell line | test | system | conditions | scale | quantity | result
CC(C)=CCn1c(-c2ccccc2)cc2ccccc21 | HEK293 | cell growth or viability | – | 50 µM | – | viability | 113%
COc1ccc(C(C)=NNC(=O)COc2ccc3c(C)cc(=O)oc3c2C)cc1OC | LPS-stimulated human macrophages | ELISA | conditioned medium | 5.3 µmol/mL, 48 h | reference: dexamethasone, reduction | IL-6 level | 1.2 fold
C#C[C@@]1(O)[C@@H](CO)O[C@@H](n2cc(I)c3c(N)ncnc32)[C@@H]1O | CCRF-CEM | cell growth or viability, SRB | – | 48 h | – | GI50 | 0.272 µM
COC1=CC(c2cc3ccccc3[nH]2)=N/C1=C\c1[nH]c(C)cc1C | NIH3T3 in PANC/NIH microtissues | fibroblast toxicity | – | 168 h, chronic toxicity, unit not given | reference: AC50 ATP over AC50 NanoLUC, day 7 | therapeutic window | 3.88
CSTSCG | bovine aortic endothelial cells | – | peptide | 2 µg coated per well, 30 to 60 min | reference: thrombospondin-coated wells | adherent cells | 39%
CC(C)C[C@H](NC(=O)CNC(=O)c1cc(Cl)ccc1Cl)B(O)O | SK-N-SH | annexin V flow cytometry | – | 100 nM, 24 h, conditioned media from pretreated astrocytes, with: inflammatory stimulus | reference: DMSO | neuronal apoptosis | no effect
C=C(C[C@H](N)C(=O)O)C(=O)NC1CC1 | MCF7 cells | cell growth inhibition | – | 72 h | reference: vehicle | lowest significantly active concentration | 10 µM
TAGSCLRKFSTM | bovine aortic endothelial cells | – | peptide, NC1 domain-coated plate | 2 µg/mL, 60 min, 37 °C | reference: no inhibitor | cell adhesion | ~50%
Ac-ARGCA-NH2 (N-acetyl, C-amide) | GM7373 bovine endothelial | cell proliferation, inhibitor | peptide | 24 h, with: 0.55 nM FGF2, 0.4% FCS | – | ID50 | 500 µM
CC1(C)S[C@@H]2[C@H](NC(=O)Cc3ccccc3)C(=O)N2[C@H]1C(=O)O | mES-D3 cell | cardiomyocyte differentiation, RT-PCR, item: MHC | – | 240 h | – | ID50 | 980 ± 24.7 mg/L
COC(=O)C[C@](O)(CCCC(C)(C)O)C(=O)O[C@@H]1C(OC)=C[C@]23CCCN2CCc2cc4c(cc2[C@H]13)OCO4 | RS4-11 | – | – | 72 h, with: cytotoxic drug | below 1 means synergy | combination index | 0.89 ± 0.12
COCn1c(-c2ccccc2)cc2ccccc21 | HEK293 NF-κB luciferase reporter | reporter gene, item: NF-κB | – | 50 µM, 6 h, with: TNFα | – | inhibition | 21.5 ± 3.3%
Oc1c2ccccc2c2c3c(cccc13)N=N2 | Drx-KOR cells co-expressing OX1R | dynorphin-induced β-arrestin recruitment, inhibitor, PathHunter | – | 20 µM, 18 h, with: dynorphin for 90 min | – | OX1R-enhanced β-arrestin recruitment | inhibited
C#CCn1c(-c2ccccc2)cc2ccccc21 | HEK293 NF-κB luciferase reporter | reporter gene, item: NF-κB | – | 50 µM, 6 h, with: TNFα | – | inhibition | 46.2 ± 2.1%
LRRFSTMPFMFANINNVANF | HUVEC | cell proliferation, WST-1 | peptide | 100 µM, 72 h | reference: vehicle | inhibition | 48.6 ± 0.53%
CCN1C(=O)/C(=C\c2ccc(Cl)cc2)S/C1=N/N=C(\C)c1ccccn1 | Vero | cell growth or viability, SRB | – | 100 µg/mL, 48 h | – | inhibition | 53.3%
CSVTCG | bovine aortic endothelial cells | – | peptide | 2 µg coated per well, 30 to 60 min | reference: thrombospondin-coated wells | adherent cells | 49% and 80%
CC(=O)N[C@@H](CS)C(=O)O | NCI-H929 | annexin V flow cytometry | – | 10 mM, 30 min pretreatment, with: HYD1 | – | protection from cell death | 32%

Substance | cell line | test | system | conditions | scale | quantity | result
c1ccc(-c2cc3ccccc3[nH]2)cc1 | HEK293 NF-κB luciferase reporter | reporter gene, item: NF-κB | – | 50 µM, 6 h, with: TNFα | – | inhibition | 76.3 ± 8.2%
CN(C)c1ccc(C2Nc3ccc(C(F)(F)F)cc3NC3=C2C(=O)CCC3)cc1 (centres unmarked) | H4 | cytoprotection | – | with: thapsigargin 7.5 µM | – | EC50 | > 50 µM
Ac-ARPCA-NH2 (N-acetyl, C-amide) | GM7373 bovine endothelial | cell proliferation, inhibitor | peptide | 24 h, with: 0.55 nM FGF2, 0.4% FCS | – | ID50 | 15 µM
C#C[C@@]1(O)[C@@H](CO)O[C@@H](n2cc(Cl)c3c(N)ncnc32)[C@@H]1O | SR | cell growth or viability, SRB | – | 48 h | – | GI50 | 0.074 µM
Cn1c(-c2ccccc2)cc2ccccc21 | HEK293 | cell growth or viability | – | 50 µM | – | viability | 106%
CCn1c(C)cs/c1=N/N=C(\C)c1ccccn1 | Vero | cell growth or viability, SRB | – | 100 µg/mL, 48 h | – | inhibition | 56.4%
Ac-ARPCAPGAPAEARL-NH2 (N-acetyl, C-amide) | GM7373 bovine endothelial | cell proliferation, inhibitor | peptide | 24 h, with: 0.55 nM FGF2, 0.4% FCS | – | ID50 | 10 µM
Clc1ccc2cc(-c3ccccc3)[nH]c2c1 | HEK293 NF-κB luciferase reporter | reporter gene, item: NF-κB | – | 50 µM, 6 h, with: TNFα | – | inhibition | 91.5 ± 1.2%
CC1=C(CC(=O)Oc2ccc(OC(=O)CCCO[N+](=O)[O-])c(C(=O)Oc3ccc(-c4cc(=S)ss4)cc3)c2)c2cc(F)ccc2/C1=C\c1ccc([S+](C)[O-])cc1 (centres unmarked) | IMR-90 and cancer cell lines | cell growth | – | 24 h | reference: IMR-90 over cancer cells | IC50 ratio | 70 to 270 fold
CC1(C)CC(=O)C2=C(C1)Nc1cc(Br)ccc1NC2c1ccc(N2CCCCC2)cc1 (centres unmarked) | H4 | cytoprotection | – | with: thapsigargin 7.5 µM | – | EC50 | 26.3 ± 1.34 µM
CC[C@@]1(O)C[C@H](O[C@H]2C[C@H](N(C)C)[C@H](O[C@H]3C[C@H](O)[C@H](O[C@H]4CCC(=O)[C@H](C)O4)[C@H](C)O3)[C@H](C)O2)c2c(cc3c(c2O)C(=O)c2c(O)cccc2C3=O)[C@H]1C(=O)OC | RS4-11 | – | – | 72 h, with: cytotoxic drug | below 1 means synergy | combination index | 0.91 ± 0.03
Ac-APCRA-NH2 (N-acetyl, C-amide) | GM7373 bovine endothelial | cell proliferation, inhibitor | peptide | 24 h, with: 0.55 nM FGF2, 0.4% FCS | – | ID50 | 100 µM
exonuclease 1 (human) | NIH3T3 | confocal microscopy, item: YFP-tagged compound | – | concentration not given, PCNA replication foci, with: co-transfected CFP-PCNA | – | cells with mid S-phase foci | 14%
COc1cccc2c1C(=O)c1c(O)c3c(c(O)c1C2=O)C[C@@](O)(C(=O)CO)C[C@@H]3O[C@H]1C[C@H](N)[C@H](O)[C@H](C)O1 | KB 3-1 | flow cytometry | – | 5 µM, 2 h plus 2 h washout | – | drug effluxed | ~20%
COC[C@H]1OC(=O)c2coc3c2[C@@]1(C)C1=C(C3=O)[C@@H]2CCC(=O)[C@@]2(C)C[C@H]1OC(C)=O | LNCaP expressing Abi1 Y213F | – | – | 0.2 µM, 2 h, with: 10 ng/mL PDGF | – | macropinocytic uptake | inhibited
Ac-ARPVA-NH2 (N-acetyl, C-amide) | GM7373 bovine endothelial | cell proliferation, inhibitor | peptide | 24 h, with: 0.55 nM FGF2, 0.4% FCS | – | ID50 | > 1000 µM
CCN(CC)c1ccc(C2Nc3ccc(Cl)cc3NC3=C2C(=O)CC(C)(C)C3)cc1 (centres unmarked) | H4 | cytoprotection | – | with: thapsigargin 7.5 µM | – | EC50 | > 50 µM

A few entries again:
Substance | cell line | test | system | conditions | scale | quantity | result
CC(=O)N[C@@H](CS)C(=O)O | NCI-H929 | annexin V flow cytometry | – | 10 mM, 30 min pretreatment, with: HYD1 | – | protection from cell death | 32%
Cn1c(-c2ccccc2)cc2ccccc21 | HEK293 | cell growth or viability | – | 50 µM | – | viability | 106%
CCN(CC)c1ccc(C2Nc3ccc(Cl)cc3NC3=C2C(=O)CC(C)(C)C3)cc1 (centres unmarked) | H4 | cytoprotection | – | with: thapsigargin 7.5 µM | – | EC50 | > 50 µM
CC1=C(CC(=O)Oc2ccc(OC(=O)CCCO[N+](=O)[O-])c(C(=O)Oc3ccc(-c4cc(=S)ss4)cc3)c2)c2cc(F)ccc2/C1=C\c1ccc([S+](C)[O-])cc1 (centres unmarked) | IMR-90 and cancer cell lines | cell growth | – | 24 h | reference: IMR-90 over cancer cells | IC50 ratio | 70 to 270 fold
C#C[C@@]1(O)[C@@H](CO)O[C@@H](n2cc(I)c3c(N)ncnc32)[C@@H]1O | CCRF-CEM | cell growth or viability, SRB | – | 48 h | – | GI50 | 0.272 µM
Ac-ARPCAPGAPAEARL-NH2 (N-acetyl, C-amide) | GM7373 bovine endothelial | cell proliferation, inhibitor | peptide | 24 h, with: 0.55 nM FGF2, 0.4% FCS | – | ID50 | 10 µM
